Results of several laboratories.
Parts stem from different laboratories: compare values within a part only. Changes are numbered by the printed parent chain.

Block 1
Target: Prothrombin, mature alpha-thrombin (F2, Homo sapiens, UniProt P00734)
Method: aptamer microarray, sandwich
Molecule type: DNA with 2'F-ANA
Medium: in vitro
Concentration: 200 nM
Setting: whole 15-mer aptamer, many near background
Added: Cy3 exosite-II aptamer, 400 nM
Direction: higher = stronger binding
Sequence: GGTTGGTGTGGTTGG
| Modification | mean fluorescence intensity |
| --- | --- |
| 2'F-ANA at 1 2 4 6 7 8 10 12 15 | 62.6 a.u. |
| 2'F-ANA at 1 2 4 5 8 10 11 15 | 47 a.u. |
| 2'F-ANA at 2 4 5 10 12 15 | 49.3 a.u. |
| 2'F-ANA at 2 4 5 8 9 11 13 | 55 a.u. |
| 2'F-ANA at 1 2 3 5 7 8 | 68 a.u. |
| 2'F-ANA at 7 8 9 10 11 13 14 | 107 a.u. |
| 2'F-ANA at 1 2 6 10 11 12 13 15 | 63.5 a.u. |
| 2'F-ANA at 1 3 5 8 10 11 | 44.6 a.u. |

Block 2
Target: RNA binding protein fox-1 homolog 2, RRM domain, GST-SBP tag (RBFOX2, Homo sapiens, UniProt O43251-10, residues 100-194)
Method: RNA Bind-n-Seq
Molecule type: RNA
Medium: in vitro
Concentration: 365 nM
Setting: natural RNA segment, single round, ends assumed
Reference: no-protein control
Direction: higher = stronger binding
Constant ends, left off below: GGGAGUUCUACAGUCCGACGAUC … UGGAAUUCUCGGGUGCCAA
Residues (chain): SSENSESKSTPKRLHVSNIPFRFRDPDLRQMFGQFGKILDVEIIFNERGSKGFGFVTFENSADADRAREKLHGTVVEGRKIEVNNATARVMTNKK
| Sequence | RBNS enrichment (R) |
| --- | --- |
| UAGCCCAGGCUUUGAACUGGCCUUAGCCUUCCACAUGCUAGGAUUAUAGGUAUGAACCAACAUGCCCAGCUCUCUCUUCUCUCGUGAAGUCAUACCCUGUGAGUAACUGG | 0.471 |
| AAGUAUUAUUUUUACUGUUAAGAUUUUUUUUAAAUGUGAAAUGAAAUGUAAUGUUUUUACAGCAAUGAUAUGAAAUAUAUUUUAUAAGGAAUAAAAUGGUACAUUGUCUG | 0.666 |
| UGUGUAUGAGAUCCUAUAUACCAGCAUGUACCAAGAAUGUGUGUGUAGUUUUAAUUAUGCUGCAAUGUAUAAUCUGGUGUGUUAUUUAAACAGCACUAGUACUGUACACU | 6.94 |
| AAAUCAUGCCAGCUAAUCAUGUCAAGUUCACUGCCUGUCAGAUUGUUGAUAUAUACCUUCUGUAAAUAACUUUUUUUGAGAAGGAAAUAAAAUCAGCUGGAACUGAACCC | 0.213 |
| GGAUUGUAGGCAAACCCACCUGUGGCAUCACUGAAAAUAAAUUUGAUCAUACCUAAGAGGUUAGGAAAUGGUGCCAUUCCCACCUUAGAGUGCUACAUAGGUGCUUUGGG | 0.231 |
| GGACAGCUCAACCAUGUUGUCAUCUUACCACCAGAGGGCACAGCAGCCCUCUAAGGGUUUUCUCCUCCGGCAAUGGAUAAGGAGCCCAGCUAUGAAAGCUUUGCUUACUG | 0.256 |
| ACUAACCCAGGACUCAGUCCUGCUUCUUUUGCCUCGAGUGAUUUUCCUCUGUUUUUCACUAAAUAAGCAAAUGAAAACUCUCUCCAUUACCUUCUGCUUUCUCUUUGUCC | 0.726 |
| GGCACAGGCUGGGUCCAGUUCUGCCUGAGCACGGUUUUUCCUCAUGUGACUUCUGGGAAGGCGCUCCCUCAUCUGGGCCAAAGGAAGGAGGACGAAGCCCUCCUCAGCUG | 0.317 |

Further values, each from its own experiment
P1: viral docking peptide; KGVKRKLFAEDSS; partner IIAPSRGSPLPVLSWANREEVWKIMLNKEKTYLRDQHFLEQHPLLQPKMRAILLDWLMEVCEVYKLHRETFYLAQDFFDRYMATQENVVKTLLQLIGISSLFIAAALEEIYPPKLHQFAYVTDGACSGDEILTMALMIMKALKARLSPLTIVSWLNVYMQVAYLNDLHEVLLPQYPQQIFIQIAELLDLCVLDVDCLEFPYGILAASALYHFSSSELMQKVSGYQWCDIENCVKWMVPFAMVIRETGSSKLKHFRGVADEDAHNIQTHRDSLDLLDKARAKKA
| Substance | target or system | assay | system | conditions | scale | endpoint | value |
| --- | --- | --- | --- | --- | --- | --- | --- |
| PDIA3 (Homo sapiens, UniProt P30101) | CARS2 (Homo sapiens, UniProt Q9HA77) | cross-linking MS | cell fractions | added: DSSO |  | cross-linked residues | K289 to T528 |
| P1 A9K | CCNE1, cyclin fold, Cln2 fusion (human) | yeast growth competition, sequencing | yeast | strong parent motif | reference: not given, higher = stronger binding | normalised enrichment score | 7.03 |

Some of these lines once more (block 2):
| Sequence | RBNS enrichment (R) |
| --- | --- |
| UGUGUAUGAGAUCCUAUAUACCAGCAUGUACCAAGAAUGUGUGUGUAGUUUUAAUUAUGCUGCAAUGUAUAAUCUGGUGUGUUAUUUAAACAGCACUAGUACUGUACACU | 6.94 |
| AAAUCAUGCCAGCUAAUCAUGUCAAGUUCACUGCCUGUCAGAUUGUUGAUAUAUACCUUCUGUAAAUAACUUUUUUUGAGAAGGAAAUAAAAUCAGCUGGAACUGAACCC | 0.213 |
